# Experimental data from different studies.
# Every numbered part comes from another study and shows a few of its results, in no order.

# Study 1
# Target: Histone acetyltransferase KAT6A, both winged helices, GST fusion (KAT6A, Homo sapiens, UniProt Q92794, residues 1-181)
# Method: protein binding microarray
# Form: double-stranded DNA, one strand shown
# Sample: in vitro
# Concentration: not given
# Notes: 8-mer, flanks averaged, mean of 2 arrays, mostly near background
# Reference: not given
# Reading: higher = stronger binding
# Target sequence (chain): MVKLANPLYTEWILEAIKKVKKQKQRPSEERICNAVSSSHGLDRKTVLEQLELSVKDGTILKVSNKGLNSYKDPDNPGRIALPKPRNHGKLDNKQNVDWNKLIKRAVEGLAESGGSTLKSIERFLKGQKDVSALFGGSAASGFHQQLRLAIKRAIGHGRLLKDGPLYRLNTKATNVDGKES
Strand,E-score
CGTGCATA,-0.00983
CCTTTAAC,0.174
TCCACCGA,-0.0707
GAGAGAGA,-0.137
CGAGATAG,-0.105
GCAATCCC,0.121
ACATCATG,-0.0556
GCCCCCCA,-0.269
ATGGATAA,-0.0253
CAACAGTC,-0.0912

# Study 2
# Target: Ras GTPase-activating protein-binding protein 1, full length (G3BP1, Homo sapiens, UniProt Q13283)
# Sequence of UniProt Q13283 (whole entry, looked up): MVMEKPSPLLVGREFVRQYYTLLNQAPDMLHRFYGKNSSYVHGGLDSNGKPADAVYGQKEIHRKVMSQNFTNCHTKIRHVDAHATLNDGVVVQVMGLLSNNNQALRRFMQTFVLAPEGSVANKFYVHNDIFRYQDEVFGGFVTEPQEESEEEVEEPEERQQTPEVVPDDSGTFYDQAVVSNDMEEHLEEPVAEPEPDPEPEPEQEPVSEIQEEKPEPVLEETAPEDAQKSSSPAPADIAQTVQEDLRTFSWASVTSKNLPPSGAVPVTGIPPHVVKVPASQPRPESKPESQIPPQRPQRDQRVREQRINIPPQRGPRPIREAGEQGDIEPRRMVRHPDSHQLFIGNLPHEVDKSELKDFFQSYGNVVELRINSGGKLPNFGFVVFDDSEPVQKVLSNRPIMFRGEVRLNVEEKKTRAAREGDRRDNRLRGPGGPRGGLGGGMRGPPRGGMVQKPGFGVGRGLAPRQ
# Method: RNA Bind-n-Seq
# Form: RNA
# Sample: in vitro
# Concentration: 200 nM
# Notes: whole 134-nt RNA, ends assumed
# Added: 150 mM KCl
# Reference: input library
# Reading: higher = stronger binding
Strand,log2 enrichment
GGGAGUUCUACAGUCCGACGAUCUGAGUAGAUCUAGAAAUGACAGUAUGACUUUGUUUCUAACAGCUCCAAAAUGGAUCAAAAUGUUUGUUUUGGAUGAAGCAGAUGAAAUGUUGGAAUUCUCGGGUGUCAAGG,-3.01
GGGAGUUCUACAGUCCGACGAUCCCUCAAGUCCUGUGCUACACAUCGUAUGUACCGAAUCGGAAGGAAGGGAAGGGAAAGUAUUAUGUUACGCCGUUCGGAUCUGCACUUCCAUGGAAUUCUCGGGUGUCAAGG,-0.484
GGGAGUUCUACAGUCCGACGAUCUGGCCCUGGUUGCAUGCGGGGAGGAAGAGGUGGCCUCAUGGAUCGUGGUGGUCCCGGUGGAAUGUUCAGAGGUGGCCGUGGUGGAGACAGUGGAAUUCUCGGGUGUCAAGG,0.151
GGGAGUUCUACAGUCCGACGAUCCAAGUCCUGUGCUACACAUCGUAUGUACCGAAUCGGUGGUUUUUUUGGAAAAAGGAAAGUAUUAUGUUACGCCGUUCGGAUCUGCACUUCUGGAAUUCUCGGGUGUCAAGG,-0.883
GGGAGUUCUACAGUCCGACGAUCACCAUGCAGGUGGGCAUCUUUGGGAAGUGAGGCAAGGGGGGGAUAGGGAGGGGGGUAACACUUUGGGAACAGGUGGUCCCAGGUCGUUUCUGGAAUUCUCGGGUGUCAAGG,1.75
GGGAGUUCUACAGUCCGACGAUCAGUCCUGUGCUACACAUCGUAUGUACCGAAUCGGAAAAAAAGGUUUGGUUUUUUUGGAAAGUAUUAUGUUACGCCGUUCGGAUCUGCACUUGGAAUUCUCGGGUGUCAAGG,-1.47

# Study 3
# Target: PABPC1L2, full length, GST fusion (mouse, UniProt A0ABA7IW68)
# Method: RNAcompete
# Form: RNA
# Sample: in vitro
# Concentration: 20 nM
# Notes: 7-mer, probes averaged, single round
# Reference: mean of 7-mers
# Reading: higher = stronger binding
# Target sequence (chain): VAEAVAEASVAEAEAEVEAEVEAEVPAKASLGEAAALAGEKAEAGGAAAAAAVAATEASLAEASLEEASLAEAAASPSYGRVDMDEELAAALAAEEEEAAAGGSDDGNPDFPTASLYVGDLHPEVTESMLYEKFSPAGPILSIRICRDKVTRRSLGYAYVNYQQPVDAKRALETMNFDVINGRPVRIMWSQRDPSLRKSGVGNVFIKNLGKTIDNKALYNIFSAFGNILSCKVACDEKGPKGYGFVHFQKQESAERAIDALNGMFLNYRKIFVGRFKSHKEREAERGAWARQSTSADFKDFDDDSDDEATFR
Strand,7-mer Z-score
UCCGUUU,-0.514
CCAAUCU,-0.262
ACAAUGU,-0.0881
UGGUACA,-0.144
CGGUCUA,-0.237
AGCGGGU,0.456
GUAGGGC,0.283
CCUCCCG,-0.463
CAAGUAC,-0.137
CAAGCAG,-0.166
AUCUAUG,-0.117
CCUUCAA,-0.162
AAUCGGU,-0.0573
UCAUACC,-0.32
CUUCUUA,-0.367
UCGAAGA,-0.0428
AAUUUCC,-0.11

# Study 4
# Target: RNA binding protein fox-1 homolog 2, RRM domain, GST-SBP tag (RBFOX2, Homo sapiens, UniProt O43251-10, residues 100-194)
# Method: RNA Bind-n-Seq
# Form: RNA
# Sample: in vitro
# Concentration: 365 nM
# Notes: natural RNA segment, single round, ends assumed
# Reference: no-protein control
# Reading: higher = stronger binding
# Target sequence (chain): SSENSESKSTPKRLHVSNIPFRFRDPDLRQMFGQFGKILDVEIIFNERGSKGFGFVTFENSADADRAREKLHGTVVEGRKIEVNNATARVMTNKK
Strand,RBNS enrichment (R)
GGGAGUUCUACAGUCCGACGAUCGGUGUGAGUGAGACAGUGGGGCACAGGUUGGGUUUGCCAAACGCCUAAUUACCAGGCCAGGAAGCAUGCCAACAAAGCCACACGGGUGUCCUAGCCAGCUUCCCUUCACCUGGAAUUCUCGGGUGCCAA,0.258
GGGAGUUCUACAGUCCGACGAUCUUUUUCCAAGGCAUUCAGAAGCAGAGAGGGAAAAGGGGCUGUGUGACCUAACAGGACAGAACUUUCUCCAAUUACUGGGUGAGUCAGAGCUGCACUGGUGACUCACUUCAUGGAAUUCUCGGGUGCCAA,0.468
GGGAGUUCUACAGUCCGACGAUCAAACUAUUGUAGGCUCCCUCGCCAAACCAUGGCUUUCCCUCAGCAUCAAGACCUGUGCCAAGGAGAAGGGAGAGGCCGGAGGCUGCUUUGGAUGCCCAGACACACAUCUUUGGAAUUCUCGGGUGCCAA,1.32
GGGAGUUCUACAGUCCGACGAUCAACUUGUUUGCCAACCAAUAAACAACUGAUUGAGAUUUAGAAGAUAUUGUAUUGAUGUAUGUACUAUAUGAUUAAUCAGUCUUUUUAUUUUUCUCGCCUUUCUUUCUUUCUGGAAUUCUCGGGUGCCAA,0.922
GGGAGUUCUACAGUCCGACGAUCAUUUUUAUUUUUUUUAUUAUUAAAUGAUGUGGUCUAUGGAAAAAAAAAUAAAAAUCUGACUUAGUUUAAACUGUGUGAGUGGCUUUCUUUGGGCAGGUUAAGAAGCCACUUGGAAUUCUCGGGUGCCAA,1.2
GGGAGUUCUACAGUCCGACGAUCCACAAAAUGUAUUAUGGUGCCAUGGCUGUUAGUUUUUAGUGAGUGCUGUAGGAUUAAUUCGAAAAUAGGCAGAAUUCCAUUCCUCCCAAGGUGGCAAAAAUUAGCUAUACUGGAAUUCUCGGGUGCCAA,0.822
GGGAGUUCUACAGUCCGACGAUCCGGCACAUGGAUGCCCACGCAUGUGCAAAAACAACUCAGGGACCAGGGACAGACCUGCUGCCAAGUGAGCCUGAUGGGCCACAGGUGUGCUCUUCUAAAUGGCCUGUGAGUGGAAUUCUCGGGUGCCAA,4.76
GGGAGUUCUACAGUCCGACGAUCGAAUCCAUACUAAAGGGGGACUUGAGGGUGUGUACCCUACAGGCCAGCCUUCCACAUCGUGUCAGUGUUGGCUGCCCAGGUUGGAAGCGAAGACUUGAUUGAUAGCAUGGUGGAAUUCUCGGGUGCCAA,3.59

# Some of these lines once more (study 3):
Strand,7-mer Z-score
AAUCGGU,-0.0573
CCUCCCG,-0.463
CGGUCUA,-0.237
CCUUCAA,-0.162
